Measurements pooled from the literature.
Every numbered part comes from another study and shows a few of its results, in no order.

Series 1
Target: Ras GTPase-activating protein-binding protein 1, C-terminal RGG region (G3BP1, Homo sapiens, UniProt Q13283)
Sequence of UniProt Q13283 (whole entry, looked up): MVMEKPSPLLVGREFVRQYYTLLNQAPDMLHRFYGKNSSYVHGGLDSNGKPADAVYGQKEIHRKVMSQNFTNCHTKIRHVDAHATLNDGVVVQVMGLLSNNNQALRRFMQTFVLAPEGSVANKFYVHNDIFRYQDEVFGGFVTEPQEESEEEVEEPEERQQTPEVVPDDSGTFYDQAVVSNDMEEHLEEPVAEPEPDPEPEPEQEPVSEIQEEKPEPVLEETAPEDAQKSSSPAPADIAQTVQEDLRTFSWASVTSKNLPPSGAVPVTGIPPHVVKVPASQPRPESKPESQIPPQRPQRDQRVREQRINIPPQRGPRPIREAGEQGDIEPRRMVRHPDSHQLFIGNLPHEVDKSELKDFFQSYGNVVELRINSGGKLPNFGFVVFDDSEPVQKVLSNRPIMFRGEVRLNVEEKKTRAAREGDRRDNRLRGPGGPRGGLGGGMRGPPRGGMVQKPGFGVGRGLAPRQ
Method: RNA Bind-n-Seq
Form: RNA
Medium: in vitro
Tested at: 1 µM
Setting: whole 134-nt RNA, ends assumed
With: 150 mM KCl
Baseline: input library
Reading: higher = stronger binding
Constant ends, left off below: GGGAGUUCUACAGUCCGACGAUC … UGGAAUUCUCGGGUGUCAAGG
| Strand | log2 enrichment |
| --- | --- |
| UAGUCACCUACUGCCACCUUCGAAAAACACGGAGAGCACCUACCCAGAGGAGAAGGUAGAUUUGGAGUAAGCCGCCGUCGACAUAAUUCC | -0.479 |
| UGGGAGGUGGAUUUUGUUUAUUUUUUUAGCUCAUUUCCAGGGGUGGGAAUUUUUUUUUAAUAUUUGUCAUGAAUAAAGUUGUUUUUGAAA | 2.62 |
| GCAGGAAGUAAAAACAAAUGGAAAUGCUUCGGAUAGUGGCAGGGGUGGGGGUUGCUAAGGAAAGGGUGGGAUGGGAGAAAGUAAAGAGUU | 1.37 |
| AGUCCUGUGCUACACAUCGUAUGUACCGAAUCGGGGUUUUGGGGUUUUGGGGUUUUGGAAAGUAUUAUGUUACGCCGUUCGGAUCUGCAC | -0.601 |
| CCUGUGCUACACAUCGUAUGUACCGAAUCGGGGAAAGGGGUUUUUGGGGAAAAAAAGGGGAAAGUAUUAUGUUACGCCGUUCGGAUCUGC | 0.387 |
| UAACUUUAGAGGAGGAUCUGAUGGAUAUGGCAGUGGACGUGGAUUUGGGGAUGGCUAUAAUGGGUAUGGAGGAGGACCUGAAGGUGGCAA | -1.08 |
| CUCAAGUCCUGUGCUACACAUCGUAUGUACCGAAUCGGAGGAAAAAGGAAAGGAAAGUAUUAUGUUACGCCGUUCGGAUCUGCACUUCCA | -1.3 |
| GCAGGAAGUAAAAACAAAUGGAAAUGCUUCGGAUAGUGGCAGGGGUGGGGGUUGCUAAGGAAAGGGUGGGAUGGGAGUGGGUAAAGUGUU | 0.779 |
| CUCAAGUCCUGUGCUACACAUCGUAUGUACCGAAUCGGGGUGGGGUGGUGGGGAAAGUAUUAUGUUACGCCGUUCGGAUCUGCACUUCCA | 0.755 |
| AUGGACUUGCACAUGAUGAACUGUGAACUUCUAGCCACAUGUAGUGCCCUUGGGUACUUGGAGGGAGACACUUACCAUAAGGAACCAGAU | -1.55 |
| UCCUCAAGUCCUGUGCUACACAUCGUAUGUACCGAAUCGGCGGGCGGGCGGAAAGUAUUAUGUUACGCCGUUCGGAUCUGCACUUCCAGC | -0.947 |
| CAAGUCCUGUGCUACACAUCGUAUGUACCGAAUCGGGUUUUGGUUUUGGUUUUGGAAAGUAUUAUGUUACGCCGUUCGGAUCUGCACUUC | -1.57 |
| ACCAUGCAGGUGGGCAUCUUUGGGAAAUGGGGCAAGGGGGGGAUAGGGAGGGGGGUAACACUUUGGGAACAGGUGGUCCCAGGUCGUUUC | -0.959 |
| AGUCCUGUGCUACACAUCGUAUGUACCGAAUCGGGGCCCCGGGCCCCGGGCCCCGGGGAAAGUAUUAUGUUACGCCGUUCGGAUCUGCAC | -2.13 |

Series 2
Target: Sal-like protein 4, full length isoform A (SALL4, Homo sapiens, UniProt Q9UJQ4, residues 1-1053)
Sequence of UniProt Q9UJQ4 (whole entry, looked up): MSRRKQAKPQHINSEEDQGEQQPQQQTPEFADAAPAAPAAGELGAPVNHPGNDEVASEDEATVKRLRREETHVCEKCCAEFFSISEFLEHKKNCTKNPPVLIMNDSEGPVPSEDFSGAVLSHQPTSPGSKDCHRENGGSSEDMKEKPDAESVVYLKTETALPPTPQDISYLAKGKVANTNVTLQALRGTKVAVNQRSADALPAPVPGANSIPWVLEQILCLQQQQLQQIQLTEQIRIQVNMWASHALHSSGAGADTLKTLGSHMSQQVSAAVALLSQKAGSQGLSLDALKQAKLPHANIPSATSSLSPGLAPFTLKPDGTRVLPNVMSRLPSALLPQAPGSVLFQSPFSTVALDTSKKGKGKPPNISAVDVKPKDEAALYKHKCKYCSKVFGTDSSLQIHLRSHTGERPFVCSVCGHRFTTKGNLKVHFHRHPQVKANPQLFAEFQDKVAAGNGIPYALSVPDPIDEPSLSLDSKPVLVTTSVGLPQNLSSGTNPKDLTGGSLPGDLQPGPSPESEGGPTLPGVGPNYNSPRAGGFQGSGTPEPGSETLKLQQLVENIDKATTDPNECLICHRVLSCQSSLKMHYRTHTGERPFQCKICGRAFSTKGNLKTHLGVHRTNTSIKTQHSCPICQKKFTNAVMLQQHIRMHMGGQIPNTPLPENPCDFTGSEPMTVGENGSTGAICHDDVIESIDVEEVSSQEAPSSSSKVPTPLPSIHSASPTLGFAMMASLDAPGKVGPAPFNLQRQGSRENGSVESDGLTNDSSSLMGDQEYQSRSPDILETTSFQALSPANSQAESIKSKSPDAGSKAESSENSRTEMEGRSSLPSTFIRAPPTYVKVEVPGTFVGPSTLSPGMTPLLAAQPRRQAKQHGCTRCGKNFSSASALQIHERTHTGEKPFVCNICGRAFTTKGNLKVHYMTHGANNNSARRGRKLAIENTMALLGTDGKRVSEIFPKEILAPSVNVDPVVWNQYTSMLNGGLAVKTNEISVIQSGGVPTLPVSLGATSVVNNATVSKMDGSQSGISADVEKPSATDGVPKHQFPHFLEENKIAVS
Method: universal PBM
Form: double-stranded DNA, one strand shown
Medium: in vitro
Tested at: 600 nM
Setting: 8-mer, flanks averaged, mean of replicates
Reading: higher = stronger binding
| Strand | E-score |
| --- | --- |
| GCCCCACA | -0.285 |
| ATTGTGGA | 0.205 |
| CACCGACG | -0.3 |
| ATATTCCA | 0.368 |
| CCTGTTAA | -0.00639 |
| AGTCGGGC | -0.327 |
| AGCATGCT | -0.136 |
| CTCTCTGC | -0.215 |
| GAGACCTC | -0.196 |
| AACTTCGA | 0.0741 |
| AAATAATG | 0.332 |
| TGCGCACA | -0.0468 |
| GAACACCC | -0.285 |
| ATATGAAA | 0.417 |
| CCTATGCA | 0.155 |
| ACTCAGTC | -0.0968 |
| CTCACCAG | -0.156 |
| ATAGAGAG | 0.0341 |
| CCTTTGCC | -0.0635 |
| GATTGTAA | 0.246 |
| GGCGCTCA | -0.219 |

Series 3
Target: RNA binding protein fox-1 homolog 2, RRM domain, GST-SBP tag (RBFOX2, Homo sapiens, UniProt O43251-10, residues 100-194)
Method: RNA Bind-n-Seq
Form: RNA
Medium: in vitro
Tested at: 365 nM
Setting: natural RNA segment, single round, ends assumed
Baseline: no-protein control
Reading: higher = stronger binding
Constant ends, left off below: GGGAGUUCUACAGUCCGACGAUC … UGGAAUUCUCGGGUGCCAA
Target sequence (chain): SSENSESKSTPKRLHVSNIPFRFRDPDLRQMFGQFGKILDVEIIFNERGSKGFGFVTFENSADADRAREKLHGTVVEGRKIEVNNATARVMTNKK
| Strand | RBNS enrichment (R) |
| --- | --- |
| UGACCUUGUCUUUCUUUCUUUUCUUGAGACAUGGUCCUACUACCAACCCUGGCUGGACUGGAGCUCAGUGUAUAGACCAGGCUAGUCUCAAACUCUGCCUCUUCCUCCCA | 0.481 |
| AGGCUGGUCUCAAACUCCUGACCUCAAGUGAUCCACCUGCCUCGGCCUCCCAAAGUGCUGGGAUUACAGGUGUGAGCCACUGUGCCCAGCCCAAACUUUUAAGAUGACCC | 0.344 |
| UCUGCCUGGAGUCUGAGGGUGACUUGAACUUCUGCCAGUACAUCUGCAACUAGAACCCUGGUCGCCUUCCUCUAACUGGAGGGCAAGCCUUCCUUUUCUAGGGCCAAACU | 0.191 |
| UUAAAACUAUACAGUUACAUCUUAAUUCCAUCCAAAGAAGAUACAGUUUGAAGACAGAAGUGUACUCUCUACAAUGCAAUUUACUGUACAGUUAGAAAGCAAAGUGUUAA | 0.46 |
| CAGCACCCAACACCUGCACUGGGCCACAAGCGGGAAAGAACACGGGUUGGUUGCAGUUGAGUUGUUGUCUGGCCGUCUGUAUUUGGAUCUUUAACUGUACUUUGCCUGGC | 0.913 |
| AUUCCUAAUAUUUUGUUCUGCAAAUUAAUGUAUAAUUUGAGGUGAAAUUCAGUUAUAAAGUCAAGGACGAAUUUGCACAGUGAUAUAUUUCUAUGUGUAUGCAAGUACAA | 0.363 |
| UCACUGUCUGCUUUUCAAUCACUAGUACAGAAUGGGCUGCAUUUUGACAUAGACUGUUAGGCACCAUUGACUUAUAAAGUUUUGUUUAUAGUUGCUCUAUCUCAGAUAAC | 0.455 |
| UUGUAGGCAGCGUGUGGCGUCUCAGAGGCCAGAGCGGCACUAGGGGGCUGAUUUUAUUACCAGGUUACCCUGUUCUAGAUCAGGAGGGUCUAUUUCCUGUUGCCGCUCUG | 0.4 |
| GGGAUACCUAAGGACCAAUGUUUUCUUCCUCUUAGACACAAAUAAAGAUGCUGAGAAAAAGCAACAACCUCGGAGUGGAUUCUCAAUCAUGGUCUCCAUUGUCUUCCUCC | 0.373 |
| CACAGAUUUAGAAAUACAUUCUCACUGUCCAAAAUCAGCUUAAACACUGGCUCUGGCGAUGAGUCAUUGUGCAAUUAGAAUCAUAUCUUAUGAUUUAUUUUCUGUCAUUA | 0.289 |
| CCGGGGGCUCUGGGGUUAGAGCCUGUUGGAAACCAGAGUAGAUUAAAGUUAUUUAAGAAUAAAAAGAACUUUGGCUAUGAGAUGUAAUCACCUUGCCUUCCUCUCUAGCA | 1.82 |
| UGCUUCAUCUUUGGACUAUAUCUCAGGUGUUUACGUGUCAACUAAUGGGAGCUUACUGGGUUAGAAGUCAGGACACUGAGUUUCAAUCCUCACUUAGUAGUCUGUGGCCC | 0.343 |

Further values, each from its own experiment
| Molecule | target | assay | system | conditions | scale | endpoint | result |
| --- | --- | --- | --- | --- | --- | --- | --- |
| PhoQ, residues 284 288 289 292 302 303 HSYLQF | PhoP, residues 12 14 15 18 19 VGHWL (Escherichia coli, UniProt P23836) | Sort-seq, item: YFP reporter | E. coli | PhoQ-PhoP variant library, with: 10 µM Mg2+ | baseline: high Mg2+ state, higher = stronger signaling | fold induction | 4.81 |

Excerpt of the above (series 3):
| Strand | RBNS enrichment (R) |
| --- | --- |
| UCUGCCUGGAGUCUGAGGGUGACUUGAACUUCUGCCAGUACAUCUGCAACUAGAACCCUGGUCGCCUUCCUCUAACUGGAGGGCAAGCCUUCCUUUUCUAGGGCCAAACU | 0.191 |
| UUAAAACUAUACAGUUACAUCUUAAUUCCAUCCAAAGAAGAUACAGUUUGAAGACAGAAGUGUACUCUCUACAAUGCAAUUUACUGUACAGUUAGAAAGCAAAGUGUUAA | 0.46 |
| CAGCACCCAACACCUGCACUGGGCCACAAGCGGGAAAGAACACGGGUUGGUUGCAGUUGAGUUGUUGUCUGGCCGUCUGUAUUUGGAUCUUUAACUGUACUUUGCCUGGC | 0.913 |
| AUUCCUAAUAUUUUGUUCUGCAAAUUAAUGUAUAAUUUGAGGUGAAAUUCAGUUAUAAAGUCAAGGACGAAUUUGCACAGUGAUAUAUUUCUAUGUGUAUGCAAGUACAA | 0.363 |
